Results of several laboratories.
Values joined by “and” are separate records of one study, mostly repeats; a detail may differ. ± gives the spread as reported.

| SMILES | test | test system | conditions | plasma concentration |
| --- | --- | --- | --- | --- |
| CCC(=O)N(C)c1ccc(Cl)c(Cl)c1 | LC-MS/MS | mouse C57BL/6 female, plasma | intravenous, 2 mg/kg, 1 h | 62.2 ng/mL and 138 ng/mL and 49.4 ng/mL |
| Cc1noc(C)c1Cn1cc(N2C(=O)CN(Cc3cccc(OS(=O)(=O)O)c3)C2=O)cn1 | – | rat Sprague-Dawley male, plasma | intravenous, 1 mg/kg of parent drug, 12 h | 12 ng/mL |
| Cc1ncsc1-c1ccc(CNC(=O)[C@@H]2C[C@@H](O)CN2C(=O)[C@@H](NC(=O)COCC(C)(COCCOCCOCCNC(=O)C[C@@H]2N=C(c3ccc(Cl)cc3)c3c(sc(C)c3C)-n3c(C)nnc32)COCCOCCOCCNC(=O)C[C@@H]2N=C(c3ccc(Cl)cc3)c3c(sc(C)c3C)-n3c(C)nnc32)C(C)(C)C)cc1 | – | male C57BL/6 mice | intravenous, 5 mg/kg, 30 min | 11100 ng/mL and 8150 ng/mL |
| COc1ccc2c(c1)CN(C(=O)CCN1CCC(Cc3ccccc3)CC1)CCS2 | – | paroxysmal atrial fibrillation patients, plasma | oral, 540 mg, 120 min | 333 ± 100 ng/mL |
| CCCC[C@H](OC(C)=O)c1ccccc1C(=O)O | – | beagle dog, both sexes, whole blood | intravenous, 0.5 mg/kg, 1 min, single dose | 1390 ± 441 ng/mL |
| C[C@]12C[C@H](c3ccc(S(C)(=O)=O)cc3)C3=C4CCC(=O)C=C4CC[C@H]3[C@@H]1CC[C@@]2(O)C(F)(F)C(F)(F)F | measured: compound (parent) | healthy human volunteers, pooled plasma | oral, 5 mg daily, day 28, 24 h | 12.2 ng/mL |
| Cc1nn(-c2nc3c(F)cc(F)cc3s2)c(O)c1C(c1ccc(C(F)(F)F)cc1)c1c(C)nn(-c2nc3c(F)cc(F)cc3s2)c1O | – | ICR mouse | oral, 50 mg/kg, 2.00 h | 31300 ng/mL and 226 ng/mL and 569 ng/mL |
| Cc1noc(C)c1Cn1cc(N2C(=O)CN(Cc3cccc(O[C@@H]4O[C@H](C(=O)O)[C@@H](O)[C@H](O)[C@H]4O)c3)C2=O)cn1 | – | rat Sprague-Dawley male, plasma | intravenous, 1 mg/kg of parent drug, 0.5 h | 69 ng/mL |
| CC(=O)N[C@H](CC(=O)O)C(=O)N[C@H](Cc1c[nH]c2ccccc12)C(=O)N[C@H](Cc1ccccc1)C(=O)N[C@H](CCCCN)C(=O)N[C@H](C)C(=O)N[C@H](Cc1ccccc1)C(=O)N[C@H](Cc1ccc(O)cc1)C(=O)N[C@H](CC(=O)O)C(=O)N[C@H](CCCCN)C(=O)N[C@@H](C(=O)N[C@H](C)C(=O)N[C@H](CCC(=O)O)C(=O)N[C@H](CCCCN)C(=O)N[C@H](Cc1ccccc1)C(=O)N[C@H](CCCCN)C(=O)N[C@H](CCC(=O)O)C(=O)N[C@H](C)C(=O)N[C@H](Cc1ccccc1)C(N)=O)C(C)C | – | human, plasma | oral, 500 mg daily, 1 h post-dose, day 13 | 433 ng/mL |
| Cc1cccc(Cn2ncc3c4cc(F)c(CN(C)C)cc4n(C)c3c2=O)n1 | – | Dutch-belted rabbit, plasma | intravitreal, 1 µM vitreous, 28.00 days | 2.13 ng/mL |
